Results gathered from unrelated publications.
± gives the spread as reported. ≈ marks a conversion by molar mass, not a printed value.

Compound	test	test system	conditions	scale	measurement	result
CC[C@H](C)[C@@H]1NC(=O)[C@H](Cc2ccc(O)cc2)NC(=O)[C@@H](N)CSSC[C@@H](C(=O)N2CCC[C@H]2C(=O)N[C@@H](CC(C)C)C(=O)NCC(N)=O)NC(=O)[C@H](CC(N)=O)NC(=O)[C@H](CCC(N)=O)NC1=O	ELISA	knock-out male mice lacking compound, plasma	intraperitoneal, 12 µg total, incremental area over baseline		AUC above baseline	12000 ± 1950 pg·30 min/sample
C[C@H](Oc1ccc(-c2nc(-c3ccc4[nH]cnc4c3)no2)cc1C(F)(F)F)C(F)(F)F		cynomolgus monkey, aneurysm model, plasma	0.1 mg/kg once daily, 8 h post-dose, 3 months dosing		plasma concentration	19 ± 3.4 nM
CCCC[C@H](NC(C)=O)C(=O)N[C@H]1CCC(=O)NC[C@@H](C(=O)N[C@@H](Cc2c[nH]c3ccccc23)C(N)=O)NC(=O)[C@H](CCCNC(=N)N)NC(=O)[C@@H](Cc2ccccc2)NC(=O)[C@H](Cc2c[nH]cn2)NC1=O		CD Sprague-Dawley rat, female, plasma	subcutaneous, 5.0 mg/kg/day, day 14, truncated curve, 3 points		AUC(0-t)	1480 ng·h/mL
CCCOc1ccc([C@H]2CNC(=O)N2c2ccc3[nH]cnc3c2)cc1		human, fasted, elderly, CSF	oral, 300 mg twice daily, capsule, 12 h, day 7, minimum, estimated		CSF concentration	12.5 ng/mL
C#C[C@]1(CO)O[C@@H](n2cnc3c(N)nc(F)nc32)C[C@@H]1O		human, plasma	oral, 15 mg, single dose, fasted		AUC(0-inf)	1.58 µM·h
C[C@@H](O)[C@H]1C(=O)N2C(C(=O)O)=C(S[C@@H]3CN[C@H](C(=O)N(C)C)C3)[C@H](C)[C@H]12	microdialysis	pig, Danish Landrace, cortical bone	intravenous, 1000 mg over 10 min, 450 min dosing interval, added: 0.25 µg/mL MIC	reference: dosing interval	time above MIC	39%
CN1CC[C@@H](NC(=O)Nc2ccc(C#N)cc2)C[C@@H]1c1nc2ccccc2[nH]1		moderate hepatic impairment, plasma	oral, 100 mg single dose, fasted, arithmetic mean		AUC(0-inf), unbound	1040 ± 286 ng·h/mL
NC(=O)OCC(COC(N)=O)c1ccccc1		Sprague-Dawley rat, male, liver	oral, 300 mg/kg, 24 h, single low dose	direction not given	hepatocyte necrosis score	0
Cc1[nH]c(=O)c(CNC(=O)c2ccc(Br)nc2)c2c1CCCC2	U-HPLC	20% DMSO in water			kinetic solubility	239 µg/mL (≈ 635 µM)
CC(C)=CCC[C@](C)(O[C@@H]1O[C@H](CO)[C@@H](O)[C@H](O)[C@H]1O)[C@H]1CC[C@]2(C)[C@@H]1[C@H](O)C[C@@H]1[C@@]3(C)CC[C@H](O[C@@H]4O[C@H](CO)[C@@H](O)[C@H](O)[C@H]4O[C@@H]4O[C@H](CO)[C@@H](O)[C@H](O)[C@H]4O)C(C)(C)[C@@H]3CC[C@]12C		Sprague-Dawley rat, plasma	oral, 2000 mg/kg ginseng extract, diet with NUTRIOSE 5% for 2 weeks		AUC	12300 ± 7060 ng·h/mL
CCc1c(-c2ccccc2)c(-c2ccccc2)nn1-c1ccccc1-c1cccc(OCC(=O)O)c1		rat, plasma	oral, 10 mg/kg		Tmax	2 h
CNCc1ccc(-c2[nH]c3cc(F)cc4c3c2CCNC4=O)cc1		human, fed high-fat meal, plasma	oral, 600 mg, 24 h, single dose, median		AUC(0-t)	10900 ng·h/mL
CC[C@@]1(O)C(=O)OCc2c1cc1n(c2=O)Cc2cc3c(CN(C)C)c(O)ccc3nc2-1		human patients, plasma	oral, dose not given, added: pazopanib	reference: compound alone	AUC(0-inf) increase	1.7 fold
COc1cccc2c1C(=O)c1c(O)c3c(c(O)c1C2=O)C[C@@](O)(C(=O)CO)C[C@@H]3O[C@H]1C[C@H](N)[C@H](O)[C@H](C)O1		mouse, E0771 tumour-bearing, tumor	intravenous, 92 µmol/kg		terminal half-life	53 h
CSc1cc(C)nc(SC)c1NC(=O)CN1CCN(CCSc2nc3ccccc3[nH]2)CC1		mouse Crl:CD1 (ICR) female, olfactory bulb	intranasal repeated, 32.4 µg in 0.01 N HCl, 45 min		concentration	6 ng/g
CC(C)=CCC[C@](C)(O[C@@H]1O[C@H](CO)[C@@H](O)[C@H](O)[C@H]1O)[C@H]1CC[C@]2(C)[C@@H]1[C@H](O)C[C@@H]1[C@@]3(C)CC[C@H](O)C(C)(C)[C@@H]3[C@@H](O[C@@H]3O[C@H](CO)[C@@H](O)[C@H](O)[C@H]3O)C[C@]12C		rat, extracted plasma QC samples	1.0 µg/mL, 24 h, 15 °C, autosampler		post-preparative stability accuracy	105 ± 6.2%
CC[C@H](C)[C@H](NC(=O)[C@H](CCCCN)NC(=O)[C@@H](NC(=O)[C@H](CCC(N)=O)NC(=O)[C@@H](N)CCCNC(=N)N)[C@@H](C)CC)C(=O)N[C@@H](Cc1c[nH]c2ccccc12)C(=O)N[C@@H](Cc1ccccc1)C(=O)N[C@@H](CCC(N)=O)C(=O)N[C@@H](CC(N)=O)C(=O)N[C@@H](CCCNC(=N)N)C(=O)N[C@@H](CCCNC(=N)N)C(=O)N[C@@H](CCSC)C(=O)N[C@@H](CCCCN)C(=O)N[C@@H](Cc1c[nH]c2ccccc12)C(=O)N[C@@H](CCCCN)C(=O)N[C@@H](CCCCN)C(N)=O	circular dichroism	TFE:water 50:50	40 µM, 25 °C		α-helix content	11%
Cn1cnc2c(F)c(Nc3ccc(Br)cc3Cl)c(C(=O)NOCCO)cc21		nude mice with A-375 tumours, plasma	oral, 10 mg/kg once daily, 7 days, steady state		CL/F	10 mL/min/kg
CCOc1c([C@H](C)n2nc(C)c3c(N)ncnc32)cc(Cl)c(F)c1[C@@H]1CNC(=O)C1		Japanese patients, plasma	oral, dose not given, cycle 1 day 15	reference: Japanese over US patients	exposure difference	65 to 80%
COc1ccc2cc3[n+](cc2c1OC)CCc1cc2c(cc1-3)OCO2		rat plasma QC sample	0.5 ng/mL nominal, 24 h, 23 °C, low QC level storage stability		measured concentration	0.47 ± 0.02 ng/mL
Cc1nc2cccc(OCC(C)(C)C(=O)NC(C)C)c2c(N)c1C(=O)O		female Sprague-Dawley rat, plasma	dietary, 100 mg/kg/day, day 7		Tmax	0 h
CN1CCN(c2ccc(Nc3ncc4cc(C#N)c(=O)n(C5CCCC5)c4n3)cc2)CC1		NIH Swiss nude mice, intracerebral U87 tumour, brain tumour	intravenous, 25 mg/kg, added: gefitinib 200 mg/kg oral 1 h before		Tmax	0.5 h
COc1ccc(-c2oc3c(OC)c(OC)c(OC)c(O)c3c(=O)c2OC)cc1OC		C57BL/6 mouse, male, small intestine	oral, 1% w/w in diet, 6 weeks, orange peel extract diet	reference: content in orange peel	tissue to peel content ratio	1.95%

Compound	test	test system	conditions	scale	measurement	result
O=C(/C=C/c1cccc(S(=O)(=O)Nc2ccccc2)c1)NO		human mild liver dysfunction, plasma	intravenous, 400 mg/m^2, 30 min infusion, cycle 1 day -7		volume of distribution steady-state	25.7 L/m²
C[C@]12CC[C@@H]3c4ccc(O)cc4CC[C@H]3[C@@H]1C[C@@H](O)[C@@H]2O	GC-MS	breast cancer women on NSAI, serum	vaginal, 0.03 mg daily, 1 h, day 28		mean serum concentration	1.55 pg/mL
CC[C@@H](C)[C@@H]1NC(=O)[C@H]([C@@H](C)CC)NC(=O)[C@@H](Cc2c[nH]c3ccccc23)NC(=O)CCSCC[C@@H](C(=O)N(C)[C@H](CO)CCCN)NC(=O)[C@H](CC(N)=O)NC1=O		New Zealand white rabbit, pregnant, fetal blood and plasma	iv bolus, 3.01 mg/kg daily for 7 days	reference: maternal maximum	placental transfer	~5%
CC(C)C[C@@H]1NC(=O)CN(C)C(=O)[C@H](Cc2ccccc2)NCc2ccc(n2C)CNC1=O		PAMPA	100 µM, 17 h, pH 6.4		Papp	1.17 ×10⁻⁶ cm/s
COc1ccc2[nH]c([S+]([O-])Cc3ncc(C)c(OC)c3C)nc2c1 (stereo not drawn)	UHPLC-MS/MS, noncompartmental	healthy Chinese volunteers, CYP2C19 *2/*3, plasma	oral, 20 mg single dose		t1/2	2.54 ± 0.7 h
O=C(CCCCCCC(=O)Nc1ccccc1)NO		patients, serum	oral, 1000 mg, cycle -1 day 2, alone		AUC(0-7 h)	37.5 µM·h
COc1cc2c(cc1OC)[C@@H]1Cc3ccc(OC)c(OC)c3CN1CC2		rat plasma QC sample	3200 ng/mL nominal, 15 days, -80 °C, high QC level storage stability		measured concentration	3210 ± 59.1 ng/mL
CC(=O)Nc1cccc(NC(=O)C(=O)NCCc2sc(-c3ccc(C)cc3)nc2C)c1	measured: heart rate, LV pressure, rhythm	Langendorff-perfused mouse heart	0.08 to 1.6 µM, 5 min each		cardiac function	no effect
CC(C)=CCC[C@](C)(O[C@@H]1O[C@H](CO)[C@@H](O)[C@H](O)[C@H]1O)[C@H]1CC[C@]2(C)[C@@H]1[C@H](O)C[C@@H]1[C@@]3(C)CC[C@H](O[C@@H]4O[C@H](CO)[C@@H](O)[C@H](O)[C@H]4O[C@@H]4O[C@H](CO)[C@@H](O)[C@H](O)[C@H]4O)C(C)(C)[C@@H]3CC[C@]12C		rat, extracted plasma QC samples	2.0 µg/mL, 24 h, 15 °C, autosampler		post-preparative stability accuracy	96.3 ± 8.5%
C[N+]1(CC(=O)OC2CCCCCCC2)CCCCC1.[I-]	metabolic stability	human, liver microsomes	1 µM, pH 7.4		half-life	> 1 h
Cn1c(=O)c2c(ncn2Cc2nnc(SCC(=O)Nc3ccccc3)n2-c2ccccc2)n(C)c1=O		bovine erythrocytes	1 mg/mL, 30 min, pH 7.4, 37 °C		haemolysis	11.7%
Cc1ccc(NC(=O)c2ccc(CN3CCNCC3)cc2)cc1Nc1nccc(-c2cccnc2)n1		human, plasma	400 mg/day imatinib, day 10 of cycle 1, metabolite of imatinib alone, mean		volume of distribution	828 L
COc1ccc(-c2cc(=O)c3c(OC)c(OC)c(OC)c(OC)c3o2)cc1		C57BL/6 mouse, male, liver	oral, 1% w/w in diet, 6 weeks, orange peel extract diet	reference: content in orange peel	tissue to peel content ratio	0.03%
C[C@H](N)C(=O)N[C@H](Cc1c[nH]c2ccccc12)C(=O)N[C@@H](Cc1ccccc1)C(=O)N[C@H](Cc1ccc2ccccc2c1)C(=O)N1CCC(C(N)=O)CC1	RP-HPLC Jupiter Proteo		acetonitrile/water TFA gradient		HPLC retention	53.3 %B
CCOc1cc(C(C)(C)C)ccc1C1=N[C@@](C)(c2ccc(Cl)cc2)[C@@](C)(c2ccc(Cl)cc2)N1C(=O)N1CCN(CCCS(C)(=O)=O)CC1		athymic nude mice, orthotopic GBM, plasma	oral, 100 mg/kg		Tmax	2 to 8 h
O=C(c1ccc(OCCN2CCCCC2)cc1)c1c(-c2ccc(O)cc2)sc2cc(O)ccc12		healthy humans, plasma	oral, 60 mg, added: water		AUC(0-48 h)	0.0112 µM·h
Cc1ccc(NC(=O)c2ccc(CN3CCN(C)CC3)cc2)cc1Nc1nccc(-c2cncc(-c3oncc3C)c2)n1		Parkinson's disease patients, plasma	oral, 100 mg once daily, day 1, 7-day dosing, mean		dose-normalised Cmax	41.6 ng/mL/mg
CCO[C@H](COc1ccc(C(F)(F)F)cc1)CSc1ccc(OCC(=O)O)c(C)c1		Sprague Dawley rat, dyslipidemic, fed	oral, highest dose, 8 h	reference: liver over plasma	tissue/plasma ratio	535
CCCSc1nc(N[C@@H]2C[C@H]2c2ccc(F)c(F)c2)c2nnn([C@@H]3C[C@H](OCCO)[C@@H](O)[C@H]3O)c2n1		male Wistar Han rats, plasma	oral, 20 mg/kg/day, week 26, carcinogenicity study		AUC	16.8 µM·h
CCN(CC)CCNC(=O)c1c(C)[nH]c(/C=C2\C(=O)Nc3ccc(F)cc32)c1C		human, plasma	oral, 15 mg/m2, day 28		maximum trough plasma concentration	69.7 ng/mL
Cc1cnc(NC(=O)C2=C(O)c3ccccc3S(=O)(=O)N2C)s1		Sprague-Dawley rat, male, liver	oral, 0.4 mg/kg, 24 h, single low dose	direction not given	hepatocyte necrosis score	0
CNCc1ccc(-c2[nH]c3cc(F)cc4c3c2CCNC4=O)cc1		human cancer patients, plasma	intravenous, 4 mg/m2, day 1, added: temozolomide 100		volume of distribution	401 L

Repeated from above:
Compound	test	test system	conditions	scale	measurement	result
Cc1ccc(NC(=O)c2ccc(CN3CCN(C)CC3)cc2)cc1Nc1nccc(-c2cncc(-c3oncc3C)c2)n1		Parkinson's disease patients, plasma	oral, 100 mg once daily, day 1, 7-day dosing, mean		dose-normalised Cmax	41.6 ng/mL/mg
CCO[C@H](COc1ccc(C(F)(F)F)cc1)CSc1ccc(OCC(=O)O)c(C)c1		Sprague Dawley rat, dyslipidemic, fed	oral, highest dose, 8 h	reference: liver over plasma	tissue/plasma ratio	535
CCCSc1nc(N[C@@H]2C[C@H]2c2ccc(F)c(F)c2)c2nnn([C@@H]3C[C@H](OCCO)[C@@H](O)[C@H]3O)c2n1		male Wistar Han rats, plasma	oral, 20 mg/kg/day, week 26, carcinogenicity study		AUC	16.8 µM·h
